Results pooled from the literature.
Every numbered part comes from another study and shows a few of its results, in no order.

Study 1
Target: Sal-like protein 4, full length isoform B (SALL4, Homo sapiens, UniProt Q9UJQ4-2, residues 1-616)
Method: universal PBM
Form: double-stranded DNA, one strand shown
Medium: in vitro
Tested at: not given
Notes: 8-mer, flanks averaged, mean of replicates
Direction: higher = stronger binding
Strand	E-score
CGTTCCAG	-0.0556
GTCTCAAA	0.0594
AATCCTGT	0.193
AGTCTGAC	-0.131
AGCAGACT	0.005
ACACTTCG	0.061
AATTACCG	0.0707
AGGGTCAA	-0.0274
ATCGGCAC	-0.0516
CTCAAGCA	-0.00775
AATTCACC	0.102
CCCGGTCC	-0.409
CTAACGCC	-0.11
GTCACTTA	0.197
CAGGCGAC	-0.309
CTGGGTAA	0.00365
ACTATGTC	0.165
CACGTCAA	-0.059
AATCTTTC	0.116

Study 2
Target: Phosphate system positive regulatory protein PHO4, full length, GST-tagged (PHO4, Saccharomyces cerevisiae, UniProt P07270, residues 1-312)
Method: competition protein-binding microarray
Form: double-stranded DNA, one strand shown
Medium: in vitro
Tested at: 2 µM
Notes: whole 60-bp probe, lowest competitor level
Added: Cbf1 competitor, 0.05 µM
Direction: higher = stronger binding
Constant ends, left off below: … GTCTTGATTCGCTTGACGCTGCTG
Target sequence (chain): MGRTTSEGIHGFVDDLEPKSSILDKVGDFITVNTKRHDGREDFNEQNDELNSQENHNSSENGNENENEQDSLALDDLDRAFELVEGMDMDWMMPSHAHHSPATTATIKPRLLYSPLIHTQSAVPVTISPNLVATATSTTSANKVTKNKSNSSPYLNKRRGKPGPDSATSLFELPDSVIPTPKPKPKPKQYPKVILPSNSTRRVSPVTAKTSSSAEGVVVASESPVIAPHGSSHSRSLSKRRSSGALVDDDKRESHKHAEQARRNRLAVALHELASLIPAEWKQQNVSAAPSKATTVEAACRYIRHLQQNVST
Strand	fluorescence intensity
AAATTACTAAGTTTTCACGTGTGCTACCCCGTATGA	13400 a.u.
CATACCCAACCTTGCCGGGTGGGTGAAGATATTTGT	4670 a.u.
ATACTATCATTAACTTCCGTGACTCGATTGGTTTGC	3840 a.u.
CGAATGGAGAGCGGCCACGTTGTTAGGGGAGTAACA	14500 a.u.
AGAAAAAAACATGGCCACATGTAGTATCGACTGACA	9900 a.u.
GAAATGAGGTTTTAGCACGTGATGGGGAAGCCACAG	17400 a.u.
CGAAAATAGCTATCGCACGTATCGAATACCAAATCA	6320 a.u.
GGTACAGCCGTCTACAACGTGTGTTAATTTGCTAAC	12900 a.u.
AGCCAGGTTGCTTCACACGTGTTGGTGTACGTTAAG	16700 a.u.
CTTCTGTAAATTTGAATGGTGGGTGGACGCGCCCCG	4060 a.u.
ATGAGATTGAAATCCTCCGTGATGGGCTCCGGAACT	3440 a.u.
ACTGAAAAAAGCCTGCGCGTGCGGAAACAAAACTGC	11200 a.u.
CGGGGTTAAGTTTGAGTAGTGGGTGGCTTGCAGCAG	5050 a.u.
CTCAAACACCACATCTGCGTGATGGCCGCCCAAAAG	6460 a.u.
CTTCTGTAAATTTTTCACGTGATGTGAAGCGCCCCG	11700 a.u.
AAATTACTAAGTTGTCACGCAACTTACCCCGTATGA	5410 a.u.
CTAACGAAGGTTTGTCACTGAACTTACAAGCCAAGT	3050 a.u.
TATCGTCAATCAACAAGCATGACAGACCAGCAACAT	5630 a.u.
ACTGGTAAGCACCGTCACGCTAAAGTCCATTTGGTT	4670 a.u.
CATACCCAACCTTTTCACGTGTCATAAGATATTTGT	13100 a.u.
CATACCCAACCTTGGTCGGTGGGTGAAGATATTTGT	4060 a.u.
CTTCTGTAAATTTGTTGAGTGGGTGGACGCGCCCCG	4110 a.u.
CTAACGAAGGTTTGTCACAAAACTTACAAGCCAAGT	2970 a.u.
GAACGGATGCCCGAGCCCGTGCCAGCGCCCGAGCCT	8090 a.u.
ACCTCATCACATCGACGCGTGGAACAGCGTTTCTTC	7560 a.u.

Study 3
Target: Ras GTPase-activating protein-binding protein 1, full length (G3BP1, Homo sapiens, UniProt Q13283)
UniProt Q13283, sequence (whole entry, looked up): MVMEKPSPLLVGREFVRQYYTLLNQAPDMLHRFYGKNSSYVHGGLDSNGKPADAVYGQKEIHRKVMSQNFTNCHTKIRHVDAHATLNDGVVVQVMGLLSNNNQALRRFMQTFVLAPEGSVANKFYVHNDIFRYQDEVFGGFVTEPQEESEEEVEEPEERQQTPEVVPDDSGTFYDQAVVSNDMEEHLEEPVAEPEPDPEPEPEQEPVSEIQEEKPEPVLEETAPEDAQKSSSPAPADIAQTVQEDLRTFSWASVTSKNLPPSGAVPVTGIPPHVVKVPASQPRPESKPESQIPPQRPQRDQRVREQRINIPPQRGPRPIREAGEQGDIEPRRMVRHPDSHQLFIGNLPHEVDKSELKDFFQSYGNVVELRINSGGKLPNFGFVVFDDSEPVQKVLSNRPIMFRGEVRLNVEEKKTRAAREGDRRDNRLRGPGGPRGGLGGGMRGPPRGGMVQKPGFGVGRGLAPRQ
Method: RNA Bind-n-Seq
Form: RNA
Medium: in vitro
Tested at: 200 nM
Notes: whole 134-nt RNA, ends assumed
Added: 150 mM KCl
Baseline: input library
Direction: higher = stronger binding
Constant ends, left off below: GGGAGUUCUACAGUCCGACGAUC … UGGAAUUCUCGGGUGUCAAGG
Strand	log2 enrichment
GUCCUGUGCUACACAUCGUAUGUACCGAAUCGGAAAAAGGUUUUUUUGGUUUUUUUGGAAAGUAUUAUGUUACGCCGUUCGGAUCUGCAC	-1.55
GUCCUGUGCUACACAUCGUAUGUACCGAAUCGGGUUUGGGUUUUUUUGGGUUUUUGGGAAAGUAUUAUGUUACGCCGUUCGGAUCUGCAC	-0.116
AGUCCUGUGCUACACAUCGUAUGUACCGAAUCGGGGAAAAAGGAAAAAGGGAAAAAGGAAAGUAUUAUGUUACGCCGUUCGGAUCUGCAC	-0.809
AAGUCCUGUGCUACACAUCGUAUGUACCGAAUCGGGGAAAGGGGUUUGGGGAGGGGAAAGUAUUAUGUUACGCCGUUCGGAUCUGCACUU	0.855
GUCCUGUGCUACACAUCGUAUGUACCGAAUCGGGGAGGGGUUUGGGGUUUUUUUGGGGAAAGUAUUAUGUUACGCCGUUCGGAUCUGCAC	0.266
ACCAUGCAGGUGGGCAUCUUUGGGAAGUGGGGCAAGGGGGGGAUAGGGAGGGGGGUAACACUUUGGGAAGAGGUGGUCCCAGGUCGUUUC	1.25
GCAGGAAGUAAAAACAAAUGGAAAUGCUUCGGAUAGUGGCAGGGGUGGGGGUUGCUAAGGAAAGGGUGGGAUGGGAGCGGGUAAAGAGUU	1.03
GUGCUACACAUCGUAUGUACCGAAUCGGGGAAAAAAAGGGGUUUUUUUGGGGUUUUUUUGGGGAAAGUAUUAUGUUACGCCGUUCGGAUC	-0.377
CUGUGCUACACAUCGUAUGUACCGAAUCGGGCCCCCCCGGCCCCCCCGGGGCCCCCCCGGGAAAGUAUUAUGUUACGCCGUUCGGAUCUG	-0.618
GUCCUGUGCUACACAUCGUAUGUACCGAAUCGGGGCCCCCGGCCCCCGGGCCCCCGGGAAAGUAUUAUGUUACGCCGUUCGGAUCUGCAC	-0.748

Study 4
Target: Histone acetyltransferase KAT6A, winged helix 2, GST fusion (KAT6A, Homo sapiens, UniProt Q92794, residues 85-181)
Method: protein binding microarray
Form: double-stranded DNA, one strand shown
Medium: in vitro
Tested at: not given
Notes: 8-mer, flanks averaged, mean of 2 arrays, mostly near background
Baseline: not given
Direction: higher = stronger binding
Construct (chain): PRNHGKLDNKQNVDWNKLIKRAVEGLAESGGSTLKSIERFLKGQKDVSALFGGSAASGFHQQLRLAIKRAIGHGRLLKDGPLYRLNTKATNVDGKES
Strand	E-score
GCTTGAAC	0.152
AGCCCGGC	0.186
CCCTAGCG	-0.116
AAACTTGG	-0.0725
AATTCCGC	0.0689
ACCGAGGA	0.0444
GCCCAGAA	0.0349
GACTTACC	-0.207
AAGACAAG	0.0846
AACCCTTC	0.0556
ACGCCGCC	0.072
AAGAATCA	0.0811
CTGGGGAA	-0.0588
AACTAGAA	0.0233
AACTGAGG	0.0501
GTGGGGGA	-0.108
ATGGCGCC	-0.00303
GACGAGTA	0.0558
CGTCGAGC	0.0898

Excerpt of the above (study 2):
Strand	fluorescence intensity
AAATTACTAAGTTGTCACGCAACTTACCCCGTATGA	5410 a.u.
CTAACGAAGGTTTGTCACTGAACTTACAAGCCAAGT	3050 a.u.
TATCGTCAATCAACAAGCATGACAGACCAGCAACAT	5630 a.u.
ACTGGTAAGCACCGTCACGCTAAAGTCCATTTGGTT	4670 a.u.
CATACCCAACCTTTTCACGTGTCATAAGATATTTGT	13100 a.u.
CATACCCAACCTTGGTCGGTGGGTGAAGATATTTGT	4060 a.u.
CTTCTGTAAATTTGTTGAGTGGGTGGACGCGCCCCG	4110 a.u.
CTAACGAAGGTTTGTCACAAAACTTACAAGCCAAGT	2970 a.u.
GAACGGATGCCCGAGCCCGTGCCAGCGCCCGAGCCT	8090 a.u.
ACCTCATCACATCGACGCGTGGAACAGCGTTTCTTC	7560 a.u.
